Assay results of several laboratories.
Each numbered part is a random draw from the data of one study; scales do not carry over between parts. Substitutions count along the parent as printed.

Study 1
Target: RNA binding protein fox-1 homolog 2, RRM domain, GST-SBP tag (RBFOX2, Homo sapiens, UniProt O43251-10, residues 100-194)
Technique: RNA Bind-n-Seq
Form: RNA
Matrix: in vitro
Concentration: 365 nM
Setting: natural RNA segment, single round, ends assumed
Baseline: no-protein control
Direction: higher = stronger binding
Measurement: RBNS enrichment (R)
All sequences stand within: GGGAGUUCUACAGUCCGACGAUC … UGGAAUUCUCGGGUGCCAA
Target sequence (chain): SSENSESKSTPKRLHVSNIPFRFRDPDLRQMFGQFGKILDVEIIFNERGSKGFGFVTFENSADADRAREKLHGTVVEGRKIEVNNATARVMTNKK
CCUCCCUCUGCCCAGCAGCCCCAUCUCUCCAUCACCCUGAGCCCCUCAGGUCCCAACUGAAUGUCUGCCAACCCCUGCUCAGGACACUCUUCUUUCCUGGGGCAAGCCAG: 0.705
CUGCCAGCUCUUAAGAAACAUUCCUGGUGCGGUGUCUGCAGUGCCCUUUGUGGGUGACUUCAGGCUUCCCGCUUUCGUGGUGCUCUUCCUGGGAUUCGUUUUUUUAUUAC: 0.253
UGUAGGCUGCCAGAUGGGGGCUAUGAAUAUGCAGACUGCAGGAAGUGCAAUGGAUAUCUGUGAUGGGCUCUUCCGCCAGAAUGGUGGCUCUGGCUAUGUGCUGAAGCCAG: 0.799
UUUGGCAAAACGCUACUUAAUCCAAUGGGUUCUGUACAGUAGAUUUUGCAGAUGUAAUAAACUUUAAUAUAAAGGAGUCCUAUGAACUCUACUGCUUCUGCUUCUUCUUC: 0.339
UGAAGGGAUUCCAUCUCUCCAUCUCCCAGUUUAUCAUUGUGGUCCAAUUACAUAGUCAGCUACAUAAUUGGCUUGCUUAUACAAAGAUAAGCAAGAGUCUUUCAUUGUCA: 0.27
UGCCUGUGGGACAAAGGACAGGAUGUAUGAAUUUAGGCCAAAGGUCCUAUGGUCCAUUUGCAGGGUUGGAAAGGCCCUUGCCAUCUCUUAGGCCUCCAUUUAAGCCCAUG: 0.813
GGUUCCUCCUGGUUUUCUUUUGUUACAACCACCCUUGCCUGUUUACAUUAAUUGCAAGGAGCAUAACGUACAGGCUGUAUGUACAAUCCUGGGCAUUGACUCUGUGACAU: 0.562
GUUACUUUUUAUAAUGUGAAAUAAUGAAUAAUGAAUUUACUCAAAAUAAAACAUAGGUUAAUGAGAUACCUGUGUUUGUGAAAAAAAGUCUUAAAUACUUUCCUGCAGUU: 0.496
UUUGCCAAGGACGUUUGUCUCAAGGGAAAAGCAGUUUUCUGUGGGGCUUAUUAAAGGAAUGUUGGUUUACAUUGUCUUCAAAGACAAGUAUAGAAGCUGUAUGUGUAAGG: 0.859
ACCUGAAGUUGCCUCUGGAGCCUCCACUGAGGAACACGUACAGCAGAGUCCUUCAUCCCAUCUCCAGGGUCUCUGACUUGUCACCCCUCAUCCUGGGAGCGCCAUAGUUC: 0.299
UCUGGGUCUAAAGCUCAGCACUGAGUCACAAUUUCACACAAGAUCAAAGUGAGGCAGUGUUAGGAAACCAUGGGCUGGGUGCAGUGCCUCUCGCCUGUAAUCGUAGCACU: 0.275
GUCAUCUGACCCCUGUCCGUCUCCUUGUCCCUGCUUCAUGUUUGGGGGCCUUUCUUUAACUGCCUUCCUGGCUUAGCUCAGAUGGCAGAUGAGAGUGUAGUCAAGGGCCU: 0.254

Study 2
Target: Histone acetyltransferase KAT6A, winged helix 1, GST fusion (KAT6A, Homo sapiens, UniProt Q92794, residues 1-85)
Technique: protein binding microarray
Form: double-stranded DNA, one strand shown
Matrix: in vitro
Concentration: not given
Setting: 8-mer, flanks averaged, mean of 2 arrays, mostly near background
Baseline: not given
Direction: higher = stronger binding
Measurement: E-score
Target sequence (chain): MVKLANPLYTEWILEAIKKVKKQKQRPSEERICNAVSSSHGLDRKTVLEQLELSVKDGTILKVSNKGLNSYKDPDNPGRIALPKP
GCTAACAA: 0.133
AAGGCATA: -0.204
AGGTAACG: -0.0299
CGCAAGTC: 0.0383
ATTAGTAG: -0.12
GTTTTATA: -0.114
ACGGTAGA: 0.184
GCATATGA: 0.0675
ACCGCCAT: 0.0355
CGATGGAC: 0.0664
ATCGGAGA: -0.0431
ATTGATCC: 0.0517
CGTTGCAC: -0.0226
AAGTCAAC: -0.269
CTATACAC: 0.00865
CATTACCG: 0.157
CGAAAAAC: -0.102
ACACATAG: -0.22
AGGAGCAA: -0.216
AATTTAGG: -0.195
CAAGTGCG: 0.131
AATCGAAA: 0.0217
CTGTCTTC: -0.181

Study 3
Target: CCNA1, cyclin fold, Cln2 fusion (human)
Technique: yeast growth competition, sequencing
Matrix: yeast
Setting: weak parent motif
Baseline: not given
Direction: higher = stronger binding
Measurement: normalised enrichment score
Starting sequence: PKN2 docking peptide (human); DSTVTKLDFDLEP
P13A: -0.18
K6A: -0.115
D10A: -0.479
F9A: 0.0713
L11A: -0.063
E12A: -0.269
D8A: -0.296

Study 4
Target: ABI1, truncated, D143A, DHFR fusion (Arabidopsis thaliana)
Technique: DHFR PCA, deep sequencing
Matrix: yeast
Setting: methotrexate growth selection, single substitutions
Together with: (+)-ABA 0 µM
Baseline: wild-type fitted maximum
Direction: higher = stronger binding
Measurement: relative binding score
Starting sequence: PYL1, truncated, DHFR fusion (Arabidopsis thaliana); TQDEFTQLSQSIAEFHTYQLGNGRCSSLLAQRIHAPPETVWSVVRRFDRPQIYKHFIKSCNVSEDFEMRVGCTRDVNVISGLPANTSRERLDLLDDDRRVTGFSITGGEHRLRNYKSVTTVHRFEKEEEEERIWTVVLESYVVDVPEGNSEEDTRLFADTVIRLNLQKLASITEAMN
A84E: 22.4%
V161H: 37.5%
A35T: -0.373%
R32V: 48.3%
I105K: 5.31%
V76R: -1.35%
E139G: 0.769%
F66G: 14.6%
T1G: 18.2%
I12L: 0.57%
K58R: 19.5%
N114G: 8.23%
R98V: -0.461%
T106L: 49.5%
E128K: 22.3%

Study 5
Target: Ras GTPase-activating protein-binding protein 1, RRM domain (G3BP1, Homo sapiens, UniProt Q13283)
Sequence of UniProt Q13283 (whole entry, looked up): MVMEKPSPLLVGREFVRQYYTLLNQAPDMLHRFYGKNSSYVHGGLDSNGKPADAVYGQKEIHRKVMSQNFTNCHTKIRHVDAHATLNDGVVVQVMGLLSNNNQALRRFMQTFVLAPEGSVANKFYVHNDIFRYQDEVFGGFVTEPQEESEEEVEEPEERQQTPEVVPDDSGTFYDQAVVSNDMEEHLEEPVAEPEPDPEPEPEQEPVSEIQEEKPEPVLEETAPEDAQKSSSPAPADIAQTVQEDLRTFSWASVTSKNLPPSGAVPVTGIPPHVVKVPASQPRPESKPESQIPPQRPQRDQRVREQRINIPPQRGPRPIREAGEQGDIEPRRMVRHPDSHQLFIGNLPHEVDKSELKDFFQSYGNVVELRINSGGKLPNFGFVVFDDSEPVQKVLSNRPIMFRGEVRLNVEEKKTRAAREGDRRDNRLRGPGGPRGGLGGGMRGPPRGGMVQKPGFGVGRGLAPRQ
Technique: RNA Bind-n-Seq
Form: RNA
Matrix: in vitro
Concentration: 1 µM
Setting: whole 134-nt RNA, ends assumed
Together with: 150 mM KCl
Baseline: input library
Direction: higher = stronger binding
Measurement: log2 enrichment
All sequences stand within: GGGAGUUCUACAGUCCGACGAUC … UGGAAUUCUCGGGUGUCAAGG
CCUGUGCUACACAUCGUAUGUACCGAAUCGGGGUUUUUUGGGGUUUUUUGGGUUUUUUGGGAAAGUAUUAUGUUACGCCGUUCGGAUCUG: -0.167
CUGUGCUACACAUCGUAUGUACCGAAUCGGGAAAAAAAGGGAAAAAAAGGGUUUUUUUGGGAAAGUAUUAUGUUACGCCGUUCGGAUCUG: -0.0454
CUGUGCUACACAUCGUAUGUACCGAAUCGGGAAAAAAAGGGAAAAAAAGGGAAAAAAAGGGAAAGUAUUAUGUUACGCCGUUCGGAUCUG: 0.0593
UCAAGUCCUGUGCUACACAUCGUAUGUACCGAAUCGGAAAGGAGGUUUUUUUGGAAAGUAUUAUGUUACGCCGUUCGGAUCUGCACUUCC: -0.278
CACAGACAACACGCACCCACACAGACACAGAGGGAAGGGGUUAGGAUGGGGACAGGGUGCACAGCAGGGCGGGGUAGGACCCCAGCCCCU: 0.175
ACCAUGCAGGUGGGCAUCUUUGGGAAGUGGGGCAAGGGGGGGAUAGGGAGGGGGGUAACACUUUGGGAACAAAUGGUCCCAGGUCGUUUC: -0.398
UGUGCUACACAUCGUAUGUACCGAAUCGGGGUUUUUUUGGGGUUUUUGGGGUUUUUUUGGGGAAAGUAUUAUGUUACGCCGUUCGGAUCU: 0.851
CUGUGCUACACAUCGUAUGUACCGAAUCGGGUUUUUUGGGGUUUUUUGGGGUUUUUUGGGGAAAGUAUUAUGUUACGCCGUUCGGAUCUG: 0.0609
CUCAAGUCCUGUGCUACACAUCGUAUGUACCGAAUCGGUUGGGUUGGGUUGGGGAAAGUAUUAUGUUACGCCGUUCGGAUCUGCACUUCC: -0.0109
UGGCCCUGGUGGCAUGCGGGGAGGAAGAGGUGGCCUCAUGGAUCGUGGUGGUCCCGGUGGAAUGUUCAGAGGUGUCCGUGGUGGAGACAG: 1.55
AAGUCCUGUGCUACACAUCGUAUGUACCGAAUCGGGUUUGGGAAAAAGGGUUUGGGAAAGUAUUAUGUUACGCCGUUCGGAUCUGCACUU: 0.756
CAAGUCCUGUGCUACACAUCGUAUGUACCGAAUCGGAAAAAGGAAAAAGGUUUGGAAAGUAUUAUGUUACGCCGUUCGGAUCUGCACUUC: -0.218
GUCCUGUGCUACACAUCGUAUGUACCGAAUCGGUUUUUGGUUUUUGGGGUUUUUGGGGAAAGUAUUAUGUUACGCCGUUCGGAUCUGCAC: -0.15
GUCCUGUGCUACACAUCGUAUGUACCGAAUCGGGUUUUUGGGAAAAAGGGUUUUUGGGAAAGUAUUAUGUUACGCCGUUCGGAUCUGCAC: -0.0179

For quick reference, copied from above (study 1):
ACCUGAAGUUGCCUCUGGAGCCUCCACUGAGGAACACGUACAGCAGAGUCCUUCAUCCCAUCUCCAGGGUCUCUGACUUGUCACCCCUCAUCCUGGGAGCGCCAUAGUUC: 0.299
UGCCUGUGGGACAAAGGACAGGAUGUAUGAAUUUAGGCCAAAGGUCCUAUGGUCCAUUUGCAGGGUUGGAAAGGCCCUUGCCAUCUCUUAGGCCUCCAUUUAAGCCCAUG: 0.813
UGAAGGGAUUCCAUCUCUCCAUCUCCCAGUUUAUCAUUGUGGUCCAAUUACAUAGUCAGCUACAUAAUUGGCUUGCUUAUACAAAGAUAAGCAAGAGUCUUUCAUUGUCA: 0.27
GGUUCCUCCUGGUUUUCUUUUGUUACAACCACCCUUGCCUGUUUACAUUAAUUGCAAGGAGCAUAACGUACAGGCUGUAUGUACAAUCCUGGGCAUUGACUCUGUGACAU: 0.562
UCUGGGUCUAAAGCUCAGCACUGAGUCACAAUUUCACACAAGAUCAAAGUGAGGCAGUGUUAGGAAACCAUGGGCUGGGUGCAGUGCCUCUCGCCUGUAAUCGUAGCACU: 0.275
